Measured values gathered from unrelated publications.
Parts stem from different laboratories: compare values within a part only.

Series 1
Target: Histone acetyltransferase KAT6A, winged helix 1, GST fusion (KAT6A, Homo sapiens, UniProt Q92794, residues 1-85)
Method: protein binding microarray
Molecule type: double-stranded DNA, one strand shown
Sample: in vitro
Tested at: not given
Notes: 8-mer, flanks averaged, mean of 2 arrays, mostly near background
Reference: not given
Reading: higher = stronger binding
Residues (chain): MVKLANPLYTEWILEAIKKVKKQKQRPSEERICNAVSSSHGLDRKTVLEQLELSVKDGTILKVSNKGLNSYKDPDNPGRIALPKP
With `ACGCCACA` the E-score was 0.053.
For `CCTGCTTA`, the E-score was -0.115.
With `AAAGAATA` the E-score was -0.149.
`CCTAGTAG` has an E-score of -0.0832.
With `ACATCGTA` the E-score was 0.0409.
`AACCTAAC` gave an E-score of 0.0867.

Series 2
Target: RING finger protein unkempt homolog, zinc fingers 1-6, GST-SBP tag (UNK, Homo sapiens, UniProt Q9C0B0, residues 30-357)
Method: RNA Bind-n-Seq
Molecule type: RNA
Sample: in vitro
Tested at: not given
Notes: RNA with constant flanks, human and mouse sites, ends assumed
Reference: input RNA pool
Reading: higher = stronger binding
Construct (chain): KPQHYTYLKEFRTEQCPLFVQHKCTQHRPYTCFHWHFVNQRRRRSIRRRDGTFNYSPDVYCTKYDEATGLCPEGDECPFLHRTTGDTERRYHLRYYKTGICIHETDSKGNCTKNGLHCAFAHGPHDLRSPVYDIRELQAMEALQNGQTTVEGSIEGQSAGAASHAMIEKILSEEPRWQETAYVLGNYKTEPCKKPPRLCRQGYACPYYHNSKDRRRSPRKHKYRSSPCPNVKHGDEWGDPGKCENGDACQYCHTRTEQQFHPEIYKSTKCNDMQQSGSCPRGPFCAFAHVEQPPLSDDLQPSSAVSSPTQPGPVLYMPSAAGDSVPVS
The bound/input enrichment of `GGGAGUUCUACAGUCCGACGAUCAGUAUCUACCUGCUGUCACGGCACUGUCCCUGUCAACUUUGUGUAGGGACGUGUGAGGGAUAUAGGGUCCCUCUGACACCUGCACACUGUCCAGGUGGUGAGCCAUCUGCUUCAGCACGUCAACAGAGGAUUGAGCAUCA` is reported as 0.0503 ratio.
`GGGAGUUCUACAGUCCGACGAUCCAGAACCUGCCUUCAGGAUCGUCACGGGUUGGAGCCAUUAAACUUACCUACAUUUCAAAGGUUAGCGAUGCAACUAAGUUAAGGCCAAAGGCAGAGUUUUGUUUUGUUAUGAAUGCAGGACAACAGAGGAUUGAGCAUCA` gave a bound/input enrichment of 0.25 ratio.
The bound/input enrichment of `GGGAGUUCUACAGUCCGACGAUCCAGAAGCCUGUUGUGCACCCCUCGGCACCUGCCCCCCUCCCUAAGGACUACGCUUUCACCUUCUUCGAUCCCAAUGACCCGGCGUGCCAGGAGAUCCUGUUUGACCCUCAGACCACCAUCCAACAGAGGAUUGAGCAUCA` is reported as 0.386 ratio.
For `GGGAGUUCUACAGUCCGACGAUCCCGACGCUGGCGCGGGCACUGUCAAAGCACAGUCUGCUGUCUCCCUUGCCUAGUGUGACAUCAUUCAGACGCUUCUACAGAGGUGACAGCCCAACAGACUCUCAAAAAGACAUGAUUGAACAACAGAGGAUUGAGCAUCA`, the bound/input enrichment was 0.141 ratio.

Series 3
Target: Interferon regulatory factor 5, full length, phosphomimetic (IRF5, Homo sapiens, UniProt Q13568-2, residues 1-514, S451D/S453D/S456D/S462D)
Method: protein-binding microarray
Molecule type: double-stranded DNA, one strand shown
Sample: in vitro
Tested at: 940 nM top
Notes: 60-bp whole probe
Added: salmon DNA 0.4 mg/ml
Reference: random background probes
Reading: higher = stronger binding
All sequences stand within: GCCTAGCAC … GTCTTGATTCGCTTGACGCTGCTG
Under “fitted relative affinity”, `TTAGAACTGGGGTTTCAATTAGTGCTA` is recorded as 1.21 z-score.
For `GTACATCTCTCTTAAATAGGGTGCTAG`, “fitted relative affinity” read 0.779 z-score.
For `TACGATCTCAGTATCGAGACGTGCTAG`, “fitted relative affinity” read 2.03 z-score.
Under “fitted relative affinity”, `TCAGTTTTCATTATTGCACTGTGCTAG` is recorded as 2.25 z-score.
`TTCAGTTTTCTTTTCCATTTGTGCTAG`: “fitted relative affinity” 2.1 z-score.

Other studies, line by line
`PhoQ, residues 284 288 289 292 302 303 ALASRC` has a fold induction of 0.937 (PhoP, residues 12 14 15 18 19 LHSVQ (Escherichia coli, UniProt P23836); Sort-seq, measured: YFP reporter; E. coli; PhoQ-PhoP variant library, added: 10 µM Mg2+; reference: high Mg2+ state, higher = stronger signaling).
